Values quoted from earlier work that unrelated publications cite.
± gives the spread as reported. Converted amounts (≈) assume the structure as drawn.
Chain of UniProt Q9H0K1 (whole entry, looked up): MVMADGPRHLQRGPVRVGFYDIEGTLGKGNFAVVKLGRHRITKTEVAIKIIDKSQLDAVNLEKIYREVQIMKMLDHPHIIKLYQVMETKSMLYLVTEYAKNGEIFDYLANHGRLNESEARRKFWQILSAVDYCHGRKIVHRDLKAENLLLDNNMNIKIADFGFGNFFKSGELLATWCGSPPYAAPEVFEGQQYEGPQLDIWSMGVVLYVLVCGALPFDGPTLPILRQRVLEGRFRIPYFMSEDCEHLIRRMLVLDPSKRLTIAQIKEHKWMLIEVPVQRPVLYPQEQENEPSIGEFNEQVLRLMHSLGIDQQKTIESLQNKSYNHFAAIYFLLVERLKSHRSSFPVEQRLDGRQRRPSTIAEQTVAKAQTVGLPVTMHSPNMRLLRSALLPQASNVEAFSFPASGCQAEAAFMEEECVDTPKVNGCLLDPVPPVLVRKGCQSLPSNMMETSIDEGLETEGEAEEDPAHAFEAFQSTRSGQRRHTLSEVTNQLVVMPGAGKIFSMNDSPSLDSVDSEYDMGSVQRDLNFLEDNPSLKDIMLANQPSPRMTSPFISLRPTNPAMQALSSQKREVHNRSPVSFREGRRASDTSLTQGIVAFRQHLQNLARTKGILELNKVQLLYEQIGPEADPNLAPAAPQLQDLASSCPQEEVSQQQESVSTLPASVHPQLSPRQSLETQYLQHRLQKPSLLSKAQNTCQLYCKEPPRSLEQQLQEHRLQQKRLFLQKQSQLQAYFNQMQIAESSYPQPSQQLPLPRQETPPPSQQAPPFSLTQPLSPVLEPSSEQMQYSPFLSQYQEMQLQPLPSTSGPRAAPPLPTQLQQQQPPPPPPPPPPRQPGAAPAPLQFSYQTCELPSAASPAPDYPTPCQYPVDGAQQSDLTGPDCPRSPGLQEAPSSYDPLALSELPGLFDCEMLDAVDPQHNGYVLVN

SMILES	target or system	test	test system	conditions	how to read	measurement	value
CC(=O)Nc1cccc(-n2c(=O)n(C3CC3)c(=O)c3c(Nc4ccc(I)cc4F)n(C)c(=O)c(C)c32)c1	A 172	–	–	–	–	IC50	1.5 µM
CNC(C)C1CCC(N)C(OC2C(N)CC(N)C(OC3OCC(C)(O)C(NC)C3O)C2O)O1 (stereo not shown)	Enterobacter cloacae	–	clinical isolate RKI-No_210/15	–	–	MIC	2 µg/mL (≈ 4.19 µM)
CNC(=O)c1cc(Oc2ccc(NC(=O)Nc3ccc(Cl)c(C(F)(F)F)c3)cc2)ccn1	A 172	–	–	–	–	IC50	7.22 µM
CCc1c2c(nc3ccc(OC(=O)N4CCC(N5CCCCC5)CC4)cc13)-c1cc3c(c(=O)n1C2)COC(=O)[C@]3(O)CC	LoVo	–	–	–	–	IC50	15.8 µM
O=C(/C=C/c1cccc(S(=O)(=O)Nc2ccccc2)c1)NO	HEK293	cell growth	–	–	–	IC50	1.42 ± 0.05 µM
CC1(C)S[C@@H]2[C@H](NC(=O)[C@H](N)c3ccccc3)C(=O)N2[C@H]1C(=O)O	Enterobacter cloacae	–	clinical isolate RKI-No_113/16	–	–	MIC	> 16 µg/mL
O=C(CCSSc1ccccc1/C=N/NC(=O)c1ccccc1)OC[C@H]1OC(O)[C@H](O)[C@@H](O)[C@@H]1O (stereo partly shown)	A2780 ovarian carcinoma	MTT	–	72 h	–	IC50	5.2 ± 0.8 µM
Nc1nc(Cl)nc2c1ncn2[C@H]1C[C@H](O)[C@@H](CO)O1	MM1.S	–	–	–	–	IC50	~0.18 µM
Nc1cc(C(F)(F)F)c(-c2nc(N3CCOCC3)nc(N3CCOCC3)n2)cn1	Serine/threonine-protein kinase SIK2 (SIK2, Homo sapiens, UniProt Q9H0K1)	enzyme activity	–	10 µM	baseline: untreated	remaining activity	97%
N=C(N)c1ccc(Nc2ccc(-c3cc4ccc(C(=N)N)cc4[nH]3)cc2)cc1	MEG-01	cell proliferation	–	–	–	IC50	1.03 µM
Cc1nc(NC(=O)N2CCC[C@H]2C(N)=O)sc1-c1ccnc(C(C)(C)C(F)(F)F)c1	A 172	–	–	–	–	IC50	119 µM
COc1cccc2c1C(=O)c1c(O)c3c(c(O)c1C2=O)C[C@@](O)(C(=O)CO)C[C@@H]3O[C@H]1C[C@H](N)[C@H](O)[C@H](C)O1	human fibroblasts	cell viability	–	–	–	IC50	1.8 µM
COc1cc2c(cc1OC)C(c1c[nH]c3ncccc13)NCC2 (stereo not shown)	MRC-5 fibroblasts	cytotoxicity	–	–	–	IC50	> 100 µM
COc1cc2c(Oc3ccc(NC(=O)C4(C(=O)Nc5ccc(F)cc5)CC4)cc3F)ccnc2cc1OCCCN1CCOCC1	A 172	–	–	–	–	IC50	1.33 µM
COc1cc2c3c(n(CCCN4CCOCC4)c(=O)c2cc1OC)-c1cc2c(cc1C3=O)OCO2	P388	–	–	72 h	–	IC50	0.3 µM
COc1cc2c(Oc3ccc4[nH]c(C)cc4c3F)ncnc2cc1OCCCN1CCCC1	T98G	–	–	–	–	IC50	14.2 µM
O=c1c(-c2ccc(O)cc2)coc2cc(O)cc(O)c12	NIH3T3	mitogenic effect	–	together with: EGF	–	IC50	12 µM
CCN1[C@@H](C(=O)NC23CCC(C(=O)O)(CC2)CC3)[C@H](c2cccc(Cl)c2F)[C@]2(C(=O)Nc3cc(Cl)ccc32)C12CCCCC2	SJSA-1	cell growth	–	–	–	IC50	2.7 µM
Cc1c(C#N)cccc1[C@@H](C)Nc1nnc(C)c2cnc(N3CCOCC3)cc12	LN-229	ERK phosphorylation, In-Cell Western, measured: phospho-ERK	–	–	–	IC50	0.0389 ± 0.0193 µM
CO[C@H]1C[C@@H]2CC[C@@H](C)[C@@](O)(O2)C(=O)C(=O)N2CCCC[C@H]2C(=O)O[C@H]([C@H](C)C[C@@H]2CC[C@@H](O)[C@H](OC)C2)CC(=O)[C@H](C)/C=C(\C)[C@@H](O)[C@@H](OC)C(=O)[C@H](C)C[C@H](C)/C=C/C=C/C=C/1C	A 172	–	–	–	–	IC50	0.04 µM
O=c1[nH]cc(F)c(=O)[nH]1	HeLa	–	–	–	–	IC50	619 µM
CN(C)c1ccc(C(=O)N(CC(=O)NCc2ccccc2)Cc2ccc(C(=O)Nc3ccccc3N)cc2)cc1	A2780	cellular HDAC activity, inhibitor	–	together with: Boc-Lys(ε-Ac)-AMC substrate	–	IC50	1.22 ± 0.08 µM
CC(F)(F)c1cc(F)ccc1-c1sc2cc(O)ccc2c1Oc1ccc(/C=C/C(=O)O)cc1	MCF7	cell growth	–	–	–	IC50	0.0007 µM
Cc1[nH]c2ccccc2c1CCNCc1ccc(/C=C/C(=O)NO)cc1	neonatal foreskin fibroblasts	cell growth	–	–	–	IC50	0.07 ± 0.01 µM
C[C@@H](c1ccc2nccn2c1)n1nnc2ncc(-c3cnn(C)c3)nc21	T98G	–	–	–	–	IC50	13.5 µM
O=c1ncccn1[C@@H]1O[C@H](CO)[C@@H](O)[C@H]1O	A2780	–	–	–	–	IC50	92 µM
C=CC(=O)Nc1cc(Nc2nccc(-c3cn(C)c4ccccc34)n2)c(OC)cc1N(C)CCN(C)C	T98G	–	–	–	–	IC50	12.3 µM
C/C=C1\NC(=O)[C@H]2CSSCC/C=C/[C@H](CC(=O)N[C@H](C(C)C)C(=O)N2)OC(=O)[C@H](C(C)C)NC1=O	HEK293	cell growth	–	–	–	IC50	< 0.005 µM

For quick reference, copied from above:
SMILES	target or system	test	test system	conditions	how to read	measurement	value
C[C@@H](c1ccc2nccn2c1)n1nnc2ncc(-c3cnn(C)c3)nc21	T98G	–	–	–	–	IC50	13.5 µM
O=c1ncccn1[C@@H]1O[C@H](CO)[C@@H](O)[C@H]1O	A2780	–	–	–	–	IC50	92 µM
